Measured values collected from several papers.
Compare with care: the assays were run in different laboratories. ± gives the spread as reported.

With `CC(=O)[O-].O.O.O.O.[Ni+2].[O-]c1ccc(Br)cc1C=NCCN1CCOCC1` the inhibition was 55.6% (DPPH radical scavenging; 240 µM).
Under “log beta ML”, `Oc1ccc2nc1CNCCNCCNC2` is recorded as 5.17 (pH-potentiometric titration; 298 K, I 0.15 M NaCl, added: Mg2+).
Under “latency of nociceptive response”, `COc1ccc2c(c1)c(CC(=O)OCOC(C)=O)c(C)n2C(=O)c1ccc(Cl)cc1` is recorded as 15.9 ± 0.87 s (hot plate test; BALB/c mice; 50 mg/kg, 60 min).
`FC(F)(F)Oc1ccc(/N=c2\oc3ccccc3cc2-c2ccccc2)cc1` gave an oedema reduction of 52.9 ± 3.6% (rat, formalin paw oedema; intraperitoneal, 20 mg/kg, 4 h).
For `CC(C)C1=C(OC(=O)C(C)(C)C)C(=O)C2=C(C=C[C@H]3C(C)(C)CCC[C@]23C)C1=O`, the HORAC was 0.642 Trolox equivalents (hydroxyl radical absorbance capacity, fluorometric).
Under IL-6 level, `CCc1nnc(NS(=O)(=O)c2ccc(NC(=S)NC(=O)/C=C/c3ccc(F)cc3)cc2)s1` is recorded as “decreased” (immunostaining; athymic nude mouse, BE(2)-C xenograft, tumour; ip, 20 mg/kg daily, 3 weeks).
With `CC=CC(CC(=O)O)c1ccc(OCc2ccc(-c3cc(OC)ccc3F)cc2)cc1` (centres unmarked) the GLP-1 release was 1.4 ± 0.19 fold change (refers to: total GLP-1; colonic crypt cultures, wild type, mouse, ex vivo; 1 µM, 2 h; relative to: vehicle).
`CCCN1C(=O)CCc2cc(NS(=O)(=O)Cc3ccccc3)ccc21` — result for “seed germination inhibition”: “inactive” (Arabidopsis thaliana Col-0 seeds; 1 µM).
`CCCCCCOC(=O)Cc1c(C)n(C(=O)c2ccc(Cl)cc2)c2ccc(OC)cc12`: “latency of nociceptive response” 15.6 ± 1.51 s (hot plate test; BALB/c mice; 75 mg/kg, 90 min).
With `COc1ccc(C2CC(c3ccc(C)cc3)=Nc3ccccc3S2)cc1OC` (centres unmarked) the HDL cholesterol was 48 mg/dL (Wistar rat, STZ-induced diabetes, serum; 10 mg/kg, 28 days).
`CCCCCCCCCCCCCCCC(=O)OCC(CSC[C@H](N)C(=O)N[C@@H](CO)C(=O)N[C@@H](CCCCN)C(=O)N[C@@H](CCCCN)C(=O)N[C@@H](CCCCN)C(=O)N[C@@H](CCCCN)C(=O)NCCCCCC(=O)N[C@@H](CCCCN)C(=O)N[C@@H](CC(C)C)C(=O)N[C@H](C(=O)N[C@@H](Cc1ccccc1)C(=O)N[C@@H](Cc1ccccc1)C(=O)N[C@@H](Cc1ccc2ccccc2c1)C(=O)O)C(C)C)OC(=O)CCCCCCCCCCCCCCC` (some centres unmarked) — result for “OC+ TS- plaque area”: “decreased” (APP/PS1 mouse; intracortical, dose not given, 5 d; relative to: vehicle).
`CSCC[C@H](N)C(=O)N1CCC[C@H]1C(=O)NCC(=O)NCC(=O)O` — result for “enthalpy of activation”: 22 ± 3.35 kcal/mol (diketopiperazine formation, transition state theory; 1-propanol; concentration not given, 70, 80, 90 °C, 0.5% acetic acid).
`COc1cc(CN2CCN(c3ccc(OC(F)(F)F)cc3)CC2)c2cc3[n+](cc2c1O)CCc1cc2c(cc1-3)OCO2` has an FRAP absorbance of 0.005 ± 1.32 a.u. (ferric reducing power, FRAP; 10 µg/mL, 30 min; higher is greater reducing power).
`COC(=O)[C@H](CC(C)C)NC(=O)[C@@H]1C[C@@H]2CN1C(=O)[C@H]([C@@H](C)OP(=O)(O)O)NC(=O)[C@H](CO)NC(=O)[C@@H](NC(=O)c1cccc(C(F)(F)F)c1)CCC(=O)NCCO2` — result for “yolk extension area decrease”: 19% (zebrafish embryo; microinjection, 12.2 ng, 24 hpf; relative to: control).
Under “depolymerization rate constant”, `C[C@H](NC(=O)COC(=O)[C@H](C)NC(=O)CO)C(=O)O` is recorded as 0.025 h⁻¹ (water; pH 3, 65 °C).
With `CC[C@H]1[C@@H](O)[C@@H]2[C@H](CC[C@]3(C)[C@@H]([C@H](C)CCOS(=O)(=O)[O-])CC[C@@H]23)[C@@]2(C)CC[C@@H](O)C[C@@H]12.[Na+]` the AST activity was 421 ± 16.7 U/L (ob/ob NASH mouse model, plasma; oral, 3 mg/kg once daily, before treatment, baseline of 8 week study).
Under “log2 fold change”, `C=C(c1ccc(C(=O)O)c(F)c1)c1cc2c(cc1C)C(C)(C)C=CC2(C)C` is recorded as -0.49 (RNA sequencing, refers to: Epha3 mRNA; rat, brain; dose not given, 24 h, single dose; relative to: vehicle).
`O=C1CCN(Cc2ccccc2)CC1C(C[N+](=O)[O-])c1ccccc1` (centres unmarked): “tail flick response” 46.8% (tail immersion test; BALB/c mice; ip, 50 mg/kg, 0.75 h).
Under “inhibition in vivo”, `O=C(CCN1CCC(O)CC1)Nc1nc(-c2ccccc2)cs1` is recorded as 47.5% (paw oedema; mouse; intraperitoneal, 200 µmol/kg).
For `CCOc1c(C(C)(C)O)sc2cnc(Nc3ccc(N4CCC(N5CC6(COC6)C5)CC4)cc3OC)nc12`, “post-rest contraction amplitude” read “increased” (human atrial trabeculae; 3 and 10 µM, rest pause 10 s).
For `N[C@@H](Cc1c[nH]cn1)C(=O)N1CCC[C@H]1C(=O)NCC(=O)NCC(=O)O`, “ΔS‡ at 298.15 K” read -40 ± 1 J/(mol·K) (diketopiperazine formation, transition state theory; 1-propanol; 70, 80, 90 °C, 0.5% acetic acid).
Under “hydroxyl radical scavenging”, `CCOC(=O)Cc1csc(NC(=O)CCN2CCC(O)CC2)n1` is recorded as 87% (Fe3+/ascorbic acid system; concentration not given, 30 min, 37 °C, added: DMSO 33 mM).
Under “transplanted cell number”, `CCC(C)n1c(C(=O)Nc2cnc(C(=O)NC)n(CC(C)C)c2=O)ncc(NC(=O)c2ncc(NC(=O)c3ccccc3)c(=O)n2Cc2ccc(OC)cc2)c1=O` (centres unmarked) is recorded as “decreased” (flow cytometry; MOLT-4, zebrafish embryo xenograft; 500 nM, 48 h; relative to: DMSO).
`C=C1C[C@@]23CC[C@H]4[C@@](C)(CCC[C@@]4(C)C(=O)O[C@@H]4O[C@H](CO)[C@@H](O)[C@H](O)[C@H]4O)[C@@H]2CC[C@]1(O[C@@H]1O[C@H](CO[C@H]2O[C@H](CO)[C@@H](O)[C@H](O)[C@H]2O)[C@@H](O)[C@H](O)[C@H]1O[C@@H]1O[C@H](CO)[C@@H](O)[C@H](O)[C@H]1O)C3` — result for “UCP1 protein level”: “increased” (immunoblot; C57BL/6N mice, high-fat diet, brown adipose tissue; drinking water, 0.2 g/L, 16 weeks; relative to: control).
The PT of `Cc1ccc(C(=O)Nc2ccc(CP(=O)(O)O)cc2CP(=O)(O)O)cc1NC(=O)c1cccc(NC(=O)Nc2cccc(C(=O)Nc3cc(C(=O)Nc4ccc(CP(=O)(O)O)cc4CP(=O)(O)O)ccc3C)c2)c1` is reported as 16.9 ± 3 s (human plasma; 423 µM).
For `C[C@H](N)C(=O)N1CCC[C@H]1C(=O)NCC(=O)NCC(=O)O`, “ΔS‡ at 298.15 K” read -50 ± 3 J/(mol·K) (diketopiperazine formation, transition state theory; 1-propanol; 70, 80, 90 °C, 0.5% acetic acid).
For `CCCCCCCCCCCCCCc1sc(NC(=O)CN2CCC(O)CC2)nc1-c1ccccc1`, “hydroxyl radical scavenging” read 78.4% (Fe3+/ascorbic acid system; concentration not given, 30 min, 37 °C, added: DMSO 33 mM).
The SDMA reduction of `Nc1nc2cnc(C(=O)N3CCOC[C@@H]3c3ccc(C(F)(F)F)cc3)cc2c2c1COC2` is reported as 100% (human, tumour biopsy; oral, 800 mg once daily, cycle 2; relative to: pretreatment).
Under pAkt level, `Cc1cnc(Nc2cc(C)c(C)c(C)c2)nc1Nc1ccc2oc(=O)[nH]c2c1` is recorded as “no effect” (refers to: phospho-Akt; rat, OVA asthma model, lung tissue; dose not given, 2 h after OVA challenge).
Under “Shp mRNA level”, `CC(C)CCC[C@@H](C)[C@H]1CCC([C@@H]2CC[C@H]3C[C@H](O)CC[C@]3(C)[C@H]2O)[C@]1(C)CC(=O)O` (some centres unmarked) is recorded as “inhibited” (inhibitor; C57BL/6J male mice, antibiotic-treated, liver; oral gavage, 10 mg/kg, added: taurocholic acid 400 mg/kg).
`Cc1cccc(Cn2ncc3c4cc(F)c(CN(C)C)cc4n(C)c3c2=O)n1`: mRNA level “decreased” (refers to: Mif; rd10 mouse, retina; intraperitoneal, 50 mg/kg at P14, P21; relative to: vehicle).
With `FC(F)(F)c1ccccc1/N=c1\oc2ccccc2cc1-c1ccccc1` the oedema reduction was 39.9 ± 3.1% (rat, formalin paw oedema; intraperitoneal, 20 mg/kg, 2 h).
With `CC1SC(N/N=C2\c3ccccc3-c3nc4cc(F)ccc4nc32)=NC1=O` (centres unmarked) the blood glucose was 357 ± 29.6 mg/dL (mice with STZ-induced diabetes; oral, 25 mg/kg, 144 h, day 6).
Under BAL eosinophils, `CCCCOc1nc(N)c2[nH]c(=O)n(CCCN(CCCN3CCOCC3)Cc3cccc(CC(=O)OC)c3)c2n1` is recorded as “inhibited” (rat, Brown Norway, ovalbumin-sensitised; intratracheal, 1 mg/kg once weekly, eight doses, challenge 26 days after last dose).
For `COc1c2c(cc3oc(C)cc(=O)c13)O[C@H](C(C)(C)O[C@@H]1O[C@H](CO)[C@@H](O)[C@H](O)[C@H]1O)C2`, “hot plate latency” read 9.82 ± 1.08 s (analgesia; mouse; oral, 1 mg/kg, 1.5 h).
For `Cc1[nH]nc2c1N=C(c1ccccc1Cl)c1cnc(N3CCOCC3)cc1N2`, angiogenesis read “inhibited” (refers to: haemoglobin; nude mice, Matrigel plug; oral, dose not given, 7 d, once daily).
For `O=C(CN1CCC(O)CC1)Nc1nccs1`, “hydroxyl radical scavenging” read 97.2% (Fe3+/ascorbic acid system; concentration not given, 30 min, 37 °C, added: DMSO 33 mM).
`C=C(c1ncc(C(=O)O)cn1)c1cc2c(cc1C)C(C)(C)CCC2(C)C` — result for “log2 fold change”: -0.5 (RNA sequencing, refers to: Nmu; rat, brain; dose not given, 24 h; relative to: vehicle).
`CCCCCCCCCCCCCCCC(=O)NCCCC[C@H](N)C(=O)N[C@@H](CC(=O)O)C(=O)N[C@H](C(=O)N[C@@H](Cc1c[nH]cn1)C(=O)N[C@@H](Cc1ccccc1)C(=O)N[C@@H](CCCNC(=N)N)C(=O)N[C@H](C(=O)N[C@@H](Cc1ccccc1)C(=O)N[C@@H](CCCNC(=N)N)C(=O)N[C@@H](CO)C(=O)N[C@@H](Cc1c[nH]cn1)C(=O)N[C@@H](CO)C(=O)N[C@@H](CC(=O)O)C(=O)N[C@@H](Cc1ccc(O)cc1)C(=O)N[C@@H](CCCNC(=N)N)C(=O)N[C@@H](CCCNC(=N)N)C(=O)N[C@H](C(=O)O)[C@@H](C)CC)[C@@H](C)O)[C@@H](C)O` — result for “final body weight”: 21.6 ± 0.9 g (C57BL/6J mouse, MCD diet; intraperitoneal, 1.2 nmol/g, 3 weeks, 3 times weekly).
`CN1CCC[C@]1(C)/C=C/S(=O)(=O)NC(=O)Nc1c2c(cc3c1CCC3)CCC2` gave an inhibition of ~90% (IL-1β release; human, whole blood ex vivo; oral, 50 mg, 36 h after last dose, multiple ascending dose, added: LPS and ATP).
For `CC(C)[C@H](N)C(=O)N1CCC[C@H]1C(=O)NCC(=O)NCC(=O)O`, “ΔS‡ at 298.15 K” read -45 ± 1 J/(mol·K) (diketopiperazine formation, transition state theory; 1-propanol; 70, 80, 90 °C, 0.5% acetic acid).
`O=C(OCc1cccc(O)c1O)c1ccc(O)c(CO)c1` — result for “time to blood pressure fall”: ≤ 24 h (C57BL/6J mice; dose not given, dosed days 7-14, added: angiotensin II infusion).
For `Cn1c(=O)c(=O)n(C)c2cc(S(=O)(=O)Nc3ccc(S(=O)(=O)Nc4ncccn4)cc3)ccc21`, the blood glucose was 90.3 ± 3.25 mg/dL (IPGTT; HFD/STZ diabetic male albino mice; 10 mg/kg, 6 h).
Under “ΔS‡ at 298.15 K”, `N[C@@H](CO)C(=O)N1CCC[C@H]1C(=O)NCC(=O)NCC(=O)O` is recorded as -72 ± 6 J/(mol·K) (diketopiperazine formation, transition state theory; 1-propanol; 70, 80, 90 °C, 0.5% acetic acid).
Under “synapsin level increase”, `CC(C)C[C@H](NC(=O)[C@H](CCCNC(=N)N)NC(=O)CNC(=O)[C@@H](N)CC(C)C)C(=O)N[C@@H](CO)C(=O)N[C@@H](CCC(N)=O)C(=O)N[C@@H](CCC(=O)O)C(=O)N[C@@H](CC(C)C)C(=O)N[C@@H](Cc1c[nH]cn1)C(=O)N[C@@H](CCCNC(=N)N)C(=O)N[C@@H](CC(C)C)C(=O)N[C@@H](CCC(N)=O)C(=O)N[C@H](C(=O)N[C@@H](Cc1ccc(O)cc1)C(=O)N1CCC[C@H]1C(=O)N[C@@H](CCCNC(=N)N)C(=O)N[C@H](C(=O)N[C@@H](CC(N)=O)C(=O)N[C@H](C(=O)NCC(=O)N[C@@H](CO)C(=O)N[C@@H](CC(N)=O)C(=O)N[C@H](C(=O)N[C@@H](Cc1ccc(O)cc1)C(N)=O)[C@@H](C)O)[C@@H](C)O)[C@@H](C)O)[C@@H](C)O` is recorded as 40% (refers to: synapsin 1; TgCRND8 mice, brain; icv, dose not given, 5 months; relative to: vehicle).
Under “ΔS‡ at 298.15 K”, `N=C(N)NCCC[C@H](N)C(=O)N1CCC[C@H]1C(=O)NCC(=O)NCC(=O)O` is recorded as 0 ± 1 J/(mol·K) (diketopiperazine formation, transition state theory; 1-propanol; 70, 80, 90 °C, 0.5% acetic acid).
`Cc1nc(C)c(C=[N+]([O-])C(C)(C)C)nc1C`: “protein level increase” 123% (Western blot, refers to: Nrf2; mouse, MPTP model, substantia nigra cytosol; 90 mg/kg).

Some of these lines once more:
`O=C(OCc1cccc(O)c1O)c1ccc(O)c(CO)c1` — result for “time to blood pressure fall”: ≤ 24 h (C57BL/6J mice; dose not given, dosed days 7-14, added: angiotensin II infusion).
`O=C1CCN(Cc2ccccc2)CC1C(C[N+](=O)[O-])c1ccccc1` (centres unmarked): “tail flick response” 46.8% (tail immersion test; BALB/c mice; ip, 50 mg/kg, 0.75 h).
The PT of `Cc1ccc(C(=O)Nc2ccc(CP(=O)(O)O)cc2CP(=O)(O)O)cc1NC(=O)c1cccc(NC(=O)Nc2cccc(C(=O)Nc3cc(C(=O)Nc4ccc(CP(=O)(O)O)cc4CP(=O)(O)O)ccc3C)c2)c1` is reported as 16.9 ± 3 s (human plasma; 423 µM).
